Published values gathered from unrelated publications.
Compare with care: the assays were run in different laboratories. ± marks the error that the study gave. In brackets after ≈: the same amount, converted by molar mass.

| Compound | target or system | assay | test system | setting | how to read | measurement | result |
| --- | --- | --- | --- | --- | --- | --- | --- |
| CC(C)n1ccn2cc(C(=O)NCc3ccc(F)cc3F)c(=O)c(O)c2c1=O | human immunodeficiency virus 1 | single-round vector infection | integrase G140S/Q148H |  |  | EC50 | 32.6 ± 7.5 nM |
| Cc1cc(/C=C/C#N)cc(C)c1-n1cnc2cnc(Nc3ccc(C#N)cc3)nc21 | HIV-1 | viral replication, single-round infection | RT mutant V111A |  |  | EC50 | 0.1 nM |
| CC[C@H](C)[C@H](NC(=O)[C@H](CCCCN)NC(=O)[C@H](Cc1c[nH]c2ccccc12)NC(=O)[C@H](CC(C)C)NC(=O)[C@H](CC(C)C)NC(=O)[C@H](CC(=O)O)NC(=O)[C@@H](NC(=O)[C@H](CCCNC(=N)N)NC(=O)[C@H](CCC(=O)O)NC(=O)[C@H](CCCNC(=N)N)NC(=O)[C@H](CC(=O)O)NC(=O)[C@H](CC(C)C)NC(C)=O)[C@@H](C)CC)C(=O)N[C@@H](C)C(=O)N[C@@H](CCCNC(=N)N)C(=O)N[C@@H](C)C(=O)NCC(=O)N[C@@H](C)C(=O)N[C@@H](CCCNC(=N)N)C(=O)N[C@@H](CO)C(=O)N[C@@H](C)C(=O)N[C@H](C(=O)NCC(N)=O)C(C)C |  | far-UV CD | POPC/POPG/chol 7:2:1 SUV | pH 7.5, 25 °C |  | membrane partition coefficient | 25000 ± 2000 |
| CCCCCCCCCCCCCCCC(=O)N[C@@H](CCC(=O)NCCOCCOCCC(=O)NCCOCCOCCC(=O)NCCCC[C@H](NC(=O)[C@H](CC(=O)O)NC(=O)[C@H](CC(C)C)NC(=O)[C@H](Cc1ccc(O)cc1)NC(=O)[C@H](CCCCN)NC(=O)[C@H](CO)NC(=O)[C@H](Cc1ccc(O)cc1)NC(=O)[C@H](CC(=O)O)NC(=O)[C@H](CO)NC(=O)[C@@H](NC(=O)[C@H](Cc1ccccc1)NC(=O)[C@@H](NC(=O)CNC(=O)[C@H](CCC(N)=O)NC(=O)[C@@H](CO)NC(=O)[C@@H](N)Cc1c[nH]cn1)[C@@H](C)O)[C@@H](C)O)C(=O)N[C@@H](CCCNC(=N)N)C(=O)N[C@@H](CCCNC(=N)N)C(=O)N[C@@H](C)C(=O)N[C@@H](CCC(N)=O)C(=O)N[C@@H](CC(=O)O)C(=O)N[C@@H](Cc1ccccc1)C(=O)N[C@H](C(=O)N[C@@H](CCC(N)=O)C(=O)N[C@@H](Cc1c[nH]c2ccccc12)C(=O)N[C@@H](CC(C)C)C(=O)N[C@@H](CC(C)C)C(=O)N[C@@H](CC(N)=O)C(=O)N[C@H](C(=O)NCC(=O)NCC(=O)N1CCC[C@H]1C(=O)N[C@@H](CO)C(=O)N[C@@H](CO)C(=O)NCC(=O)N[C@@H](C)C(=O)N1CCC[C@H]1C(=O)N1CCC[C@H]1C(=O)N1CCC[C@H]1C(=O)N[C@@H](CO)C(N)=O)[C@@H](C)O)C(C)C)C(=O)O |  | histology | Sprague-Dawley rat ANIT model | 20 and 40 µg/kg every 2 days |  | liver fibrosis | decreased |
| Cc1cc(/C=C/C#N)cc(C)c1Nc1nc(Nc2ccc(C#N)cc2)ncc1N | HIV-1 | viral replication, single-round infection | RT mutant L100I |  |  | EC50 | 0.1 ± 0.03 nM |
| O=C(NC1CCN(c2ncnc3[nH]cnc23)CC1)c1cccc(NS(=O)(=O)c2ccc(C(F)(F)F)cc2)c1 | monkeypox virus E1/E12 |  |  | 50 µM |  | inhibition | 8.26% |
| CC[C@H](C)[C@H](NC(=O)[C@H](CCCCN)NC(=O)[C@H](CCCCN)NC(=O)[C@H](CC(C)C)NC(=O)[C@H](Cc1c[nH]c2ccccc12)NC(=O)CN)C(=O)NCC(=O)N[C@@H](CCCCN)C(=O)N[C@@H](CCCCN)C(=O)N[C@H](C(=O)N[C@@H](CCC(=O)O)C(=O)N[C@@H](CCCNC(=N)N)C(=O)N[C@H](C(=O)NCC(=O)N[C@@H](CCC(N)=O)C(=O)N[C@@H](Cc1c[nH]cn1)C(=O)N[C@H](C(=O)N[C@@H](CCCNC(=N)N)C(=O)N[C@@H](CC(=O)O)C(=O)N[C@@H](C)C(=O)N[C@H](C(=O)N[C@H](C(=O)N[C@@H](CCC(N)=O)C(=O)N[C@H](C(=O)N[C@H](C(=O)NCC(=O)N[C@H](C(=O)N[C@@H](C)C(=O)N[C@@H](CCC(N)=O)C(=O)N[C@@H](CCC(N)=O)C(=O)N[C@@H](C)C(=O)N[C@@H](C)C(=O)N[C@@H](CC(N)=O)C(=O)N[C@H](C(=O)N[C@@H](C)C(=O)N[C@@H](C)C(=O)N[C@H](C(=O)N[C@@H](CC(C)C)C(=O)N[C@@H](CCCCN)C(N)=O)[C@@H](C)O)C(C)C)C(C)C)[C@@H](C)CC)[C@@H](C)O)[C@@H](C)CC)[C@@H](C)O)[C@@H](C)O)C(C)C)[C@@H](C)CC | E. coli, K. pneumoniae, A. baumannii |  | CAMHB with 10% human serum |  |  | MIC | ~0.25 µg/mL (≈ 0.0595 µM) |
| COCCN1CCn2cc(C(=O)NCc3ccc(F)cc3F)c(=O)c(O)c2C1=O | human immunodeficiency virus 1 | single-round vector infection | integrase R263K |  |  | EC50 | 5.5 ± 0.4 nM |
| Nc1ncnc2c1ncn2C1CCC(OC(C(=O)O)P(=O)(O)O)C1 (racemic) | HIV-1 reverse transcriptase M184I | enzyme activity, inhibitor |  | with: poly(rU)·oligo(dA), [3H]dATP | relative to: mutant over wild type | fold resistance | 2.8 fold |
| CC[C@H](C)[C@H](N)C(=O)N[C@@H](Cc1c[nH]c2ccccc12)C(=O)N[C@@H](CC(C)C)C(=O)N[C@H](C(=O)N[C@@H](C)C(=O)N[C@@H](CC(C)C)C(=O)N[C@@H](CCCCN)C(=O)N[C@@H](Cc1ccccc1)C(=O)N[C@@H](CC(C)C)C(=O)NCC(=O)N[C@@H](CCCCN)C(=O)N[C@@H](Cc1c[nH]cn1)C(=O)N[C@@H](C)C(=O)N[C@@H](C)C(=O)N[C@@H](CCCCN)C(=O)N[C@@H](Cc1c[nH]cn1)C(=O)N[C@@H](CCC(=O)O)C(=O)N[C@@H](C)C(=O)N[C@@H](CCCCN)C(=O)N[C@@H](CCC(N)=O)C(=O)N[C@@H](CCC(N)=O)C(=O)N[C@@H](CC(C)C)C(=O)N[C@@H](CO)C(=O)N[C@@H](CCCCN)C(=O)N[C@@H](CC(C)C)C(=O)N[C@@H](CS)C(N)=O)[C@@H](C)O | human red blood cells |  |  | pH 7.4 | relative to: Triton X-100 | EC50 | > 100000 nM |
| CC(C)N1CCn2cc(C(=O)NCc3ccc(F)cc3F)c(=O)c(O)c2C1=O | human immunodeficiency virus 1 | single-round vector infection | integrase G140S/Q148H |  |  | EC50 | 27.3 ± 5.2 nM |
| CC[C@H](C)[C@@H]1NC(=O)[C@H](CC(=O)O)NC(=O)[C@H]([C@@H](C)O)NC(=O)[C@@H]2CSSC[C@@H]3NC(=O)[C@H](CC(C)C)NC(=O)[C@H](CC(N)=O)NC(=O)[C@H](CC(C)C)NC(=O)[C@H](CCCNC(=N)N)NC(=O)[C@H](Cc4ccc(O)cc4)NC(=O)[C@H](CCCCN)NC(=O)[C@H](CCSC)NC(=O)[C@H](CO)NC(=O)[C@H]([C@@H](C)O)NC(=O)[C@H](CCCNC(=N)N)NC(=O)[C@H](CSSC[C@H](NC(=O)[C@H]([C@@H](C)O)NC(=O)[C@H](CCCCN)NC(=O)[C@H](CCCNC(=N)N)NC3=O)C(=O)NCC(=O)N[C@@H](CO)C(=O)N[C@H](C(=O)O)CSSC[C@H](NC(=O)[C@@H](NC(=O)[C@@H](N)CCCNC(=N)N)[C@@H](C)O)C(=O)N[C@@H](CCCCN)C(=O)N[C@@H](CC(=O)O)C(=O)N[C@@H](CC(C)C)C(=O)N[C@@H]([C@@H](C)CC)C(=O)N3CCC[C@H]3C(=O)N[C@@H](C(C)C)C(=O)N[C@@H](CO)C(=O)N[C@@H](CCC(=O)O)C(=O)N2)NC(=O)[C@H](CCCNC(=N)N)NC1=O | KcsA-Shaker chimera channel Y82V | two-electrode voltage clamp | Xenopus oocytes | 0 mV | relative to: KcsA-Shaker | fold decrease in affinity | ~550 fold |
| O=C(NCc1ccc(F)cc1F)c1cn2c(c(O)c1=O)C(=O)N(CCCCCCO)CC2 | human immunodeficiency virus 1 | single-round vector infection | integrase N155H |  |  | EC50 | 35.9 ± 1.1 nM |
| CC[C@H](C)[C@H](NC(=O)[C@H](CC(C)C)NC(=O)[C@H](CCCCN)NC(=O)[C@@H](N)CCCCN)C(=O)N[C@H](C(=O)N[C@@H](Cc1ccccc1)C(=O)N[C@H](C(=O)N1CCC[C@H]1C(=O)N[C@@H](CCCCN)C(=O)N[C@@H](CCCCN)C(=O)N[C@H](C(=O)N[C@@H](CCCNC(=N)N)C(=O)N[C@@H](CCC(=O)O)C(=O)N[C@@H](CCCCN)C(=O)N[C@@H](CCCCN)C(=O)N[C@@H](CCCCN)C(=O)N[C@@H](CCC(=O)O)C(=O)N[C@@H](CS)C(=O)N[C@@H](CC(C)C)C(=O)N[C@H](C(=O)O)C(C)C)[C@@H](C)O)[C@@H](C)CC)[C@@H](C)O | TTX-sensitive sodium channel | resurgent sodium current, open-channel blocker, whole-cell patch clamp | mouse hippocampal CA3 neurons | 200 µM intracellular, 22 °C |  | time to peak | 0.6 ± 0.1 ms |
| Nc1c(C(=O)NCc2ccc(F)cc2F)c(=O)n(O)c2ncccc12 | HIV-1 vector with IN H51Y | single-round infectivity |  |  |  | EC50 | 1 ± 0.6 nM |
| COCCCCCCN1CCn2cc(C(=O)NCc3ccc(F)cc3F)c(=O)c(O)c2C1=O | human immunodeficiency virus 1 | single-round vector infection | integrase S230N |  |  | EC50 | 8.8 ± 0.9 nM |

For quick reference, copied from above:
| Compound | target or system | assay | test system | setting | how to read | measurement | result |
| --- | --- | --- | --- | --- | --- | --- | --- |
| Nc1c(C(=O)NCc2ccc(F)cc2F)c(=O)n(O)c2ncccc12 | HIV-1 vector with IN H51Y | single-round infectivity |  |  |  | EC50 | 1 ± 0.6 nM |
| COCCCCCCN1CCn2cc(C(=O)NCc3ccc(F)cc3F)c(=O)c(O)c2C1=O | human immunodeficiency virus 1 | single-round vector infection | integrase S230N |  |  | EC50 | 8.8 ± 0.9 nM |
